Results from different studies.
Each line is one published result; not all experiments were run side by side. ± gives the spread as reported.

For `COc1cc(CNC(=O)C[C@H](C)CCC=C(C)C)ccc1OCc1cn(-c2ccc(Cl)c(Cl)c2)nn1`, the growth percent was 80.5% (SF-295 CNS cancer cells; SRB; 10 µM, 48 h).
`Cc1c(OCc2ccccc2)c(=O)ccn1CCCOC(=O)c1ccccc1Cl` gave a potency ratio of about 16 fold (PC-12; cell growth, MTT; baseline: docetaxel over compound IC50).
The apoptosis induction of `CC(=O)OC[C@H]1O[C@@H](Sc2nc3c4cnn(C(=O)CNc5ccc(C)cc5)c4ncn3n2)[C@H](OC(C)=O)[C@@H](OC(C)=O)[C@@H]1OC(C)=O` is reported as 22 fold (HCT cells; annexin V-FITC/PI flow cytometry; concentration not given; baseline: untreated control).
The growth percent of `COc1cc(CNC(=O)C[C@H](C)CCC=C(C)C)ccc1OCc1cn(-c2ccccc2)nn1` is reported as 88.2% (SF-295 CNS cancer cells; SRB; 10 µM, 48 h).
`O=C(/C=C/c1cccc(S(=O)(=O)NCc2ccccc2)c1)NO` gave a relative potency of 1.09 (MOPC-315; cell growth; 24 h; baseline: belinostat).
`Nc1c(S(=O)(=O)O)cc(Nc2cccc(S(N)(=O)=O)c2)c2c1C(=O)c1ccccc1C2=O`: protein level “decreased” (primary mouse articular chondrocytes; western blot, item: Phlpp2; micromass culture; 25 µM, dosed days 4–6 and 4–9).
Under “r(G4C2)exp foci per nucleus”, `Cc1c2ccnc(C(=O)N[C@H](C)CN(C)C)c2cc2c3cc(OCCCN4CCN(C)CC4)ccc3n(C)c12` is recorded as 0.1 ± 0.2 (C9orf72 ALS patient-derived LCLs; RNA FISH; 0.05 µM).
Under “antiproliferative onset concentration”, `COCCNCC(=O)N(CCCCN)CC(=O)N(CC(=O)N(CC(=O)N(CCCCN)CC(=O)N[C@@H](CCCCN)C(=O)N[C@H](CCCCN)C(=O)N[C@@H](CCSC)C(=O)NCCCC[C@H](NC(=O)[C@H](CCSC)NC(=O)[C@@H](CCCCN)NC(=O)[C@H](CCCCN)NC(=O)CN(CCCCN)C(=O)CN(C(=O)CN(Cc1ccc2c(c1)OCO2)C(=O)CN(CCCCN)C(=O)CNCCOC)[C@H](C)c1ccccc1)C(N)=O)[C@H](C)c1ccccc1)Cc1ccc2c(c1)OCO2` is recorded as 30 µM (H358; MTS; 6 days).
`CC(=O)Nc1ccc(OC(=O)CCC(=O)[O][Pt-2]23([O]C(=O)CCC(=O)Oc4ccc(NC(C)=O)cc4)([NH2+][C@@H]4CCCC[C@H]4[NH2+]2)[O]C(=O)C(=O)[O]3)cc1` has a GSH content of 54.5% (4T1; 2 µM, 24 h; baseline: untreated).
`C=C1[C@H](O)CC(=C/C=C2\CCC[C@]3(C)[C@@H]([C@H](C)CCCC)CC[C@@H]23)C[C@H]1O` has an EC50 ratio of 50 (HL-60; cell differentiation, NBT reduction; baseline: compound over 1α,25-dihydroxyvitamin D3).
With `COc1cc(CNC(=O)C[C@H](C)CCC=C(C)C)ccc1OCc1cn(-c2cccc(Cl)c2)nn1` the growth percent was 43.4% (MDA-MB-468 breast cancer cells; SRB; 10 µM, 48 h).
The cell count of `COc1ccc([C@@H]2CC(=O)c3c(O)cc(O[C@@H]4O[C@H](CO[C@@H]5O[C@@H](C)[C@H](O)[C@@H](O)[C@H]5O)[C@@H](O[C@H]5O[C@H](CO)[C@@H](O)[C@H](O)[C@H]5O)[C@H](O)[C@H]4O)cc3O2)cc1O` is reported as 27500 ± 412 (A549; trypan blue exclusion; 50 µg/mL, 72 h).
`Nc1ncc(-c2cnn(C3CCNCC3)c2)cc1-c1nc2ccc(O)cc2o1`: PARP cleavage “increased” (HEL 92.1.7; western blot; concentration not given, 24 h; baseline: untreated).
For `CC(C)=CCc1c(O)cc(CO)cc1O`, the glucose consumption was 4.64 ± 0.57 mM (HepG2, palmitic acid-induced insulin resistance; 2.5 µM, 24 h).
`CNC(=O)c1ccccc1Oc1nc(Nc2cc(OC)c(OC)c(OC)c2)ncc1Br` — result for “adenylate energy charge”: “no effect” (C2C12 myotubes; 10 to 50 µM, 1 h).
The growth percent of `COc1cc(CNC(=O)C[C@H](C)CCC=C(C)C)ccc1OCc1cn(-c2ccccc2F)nn1` is reported as 94% (UACC-257 melanoma cells; SRB; 10 µM, 48 h).
`CC(=C(c1ccc(Cl)cc1)c1ccc(OCCCN(C)C)cc1)c1ccc(Cl)cc1` gave a growth inhibition of 16.3% (NCI-60 tumour cell lines; 10 µM, mean over cell lines).
For `O=Cc1c(O)ccc2ccccc12`, “log2 fold change” read 3.41 (HUVEC; RNA sequencing, item: NGFR; 75 µM, 24 h; baseline: DMSO).
The growth percent of `COc1cc(CNC(=O)C[C@H](C)CCC=C(C)C)ccc1OCc1cn(-c2cccc(C(F)(F)F)c2)nn1` is reported as 80.8% (Malme-3M melanoma cells; SRB; 10 µM, 48 h).

A few entries again:
`O=C(/C=C/c1cccc(S(=O)(=O)NCc2ccccc2)c1)NO` gave a relative potency of 1.09 (MOPC-315; cell growth; 24 h; baseline: belinostat).
